Measurements of several laboratories.
Numbered parts are unrelated; each lists some results of a single study. Changes are numbered by the printed parent chain.

Series 1
Target: Interferon regulatory factor 5, full length, phosphomimetic (IRF5, Homo sapiens, UniProt Q13568-2, residues 1-514, S451D/S453D/S456D/S462D)
Technique: protein-binding microarray
Form: double-stranded DNA, one strand shown
Matrix: in vitro
Tested at: 940 nM top
Notes: 60-bp whole probe
With: salmon DNA 0.4 mg/ml
Reference: random background probes
Reading: higher = stronger binding
Constant ends, left off below: GCCTAGCAC … GTCTTGATTCGCTTGACGCTGCTG
Sequence | fitted relative affinity [z-score]
GACGGACTGGGTTACGGGACGTGCTAG | -0.4
TTAGACATCAGACTGGATTAGTGCTAG | -0.614
TCAACTTCTCTTTTGGCACTGTGCTAG | 0.63
ATAATTTTTCTAGTGGTTGCGTGCTAG | 0.354
GACGAACTGAGGATCGAGACGTGCTAG | -0.256
TTAGGTATCCTTTTCTTTTAGTGCTAG | 1.02
TTAGGTTTCTACACTGGGTTAGTGCTA | 2.3
GATGAAGATGTAGAACTTTTGTGCTAG | -0.249
GTCGATATCAGTCTCGAGACGTGCTAG | 2.15
TTAGCTATCAGTCTCGATTAGTGCTAG | 2.69
GACGGTCTCCTACTGCTGTCGTGCTAG | 0.4
TTAGGCATCGACTTTCGGTTAGTGCTA | 2.34
GACGGACTGGGGACTGGGGAGGTGCTA | -0.183
CTTTCTTTATGCACTCTTTACGTGCTA | 2.19
TCATGTCTTCCCCTCTCACTGTGCTAG | 0.775
GACGGTCTCCTCCTGCTGACGTGCTAG | 0.257
TTAGGTCTCGGTTTCGGTTAGTGCTAG | 9.68
TTCGGTATCCTACTGCTTTAGTGCTAG | 0.38
TTAGGTATCCATATCCTTTAGTGCTAG | 0.431
GACGGTTTAGGTCTCGGGACGTGCTAG | 0.792
CTAGGTATCGGGACTGGGTTAGTGCTA | 3.51
TTAGATATCAGCCTGGATTAGTGCTAG | -0.322

Series 2
Target: ABI1, truncated, D143A, DHFR fusion (Arabidopsis thaliana)
Technique: DHFR PCA, deep sequencing
Matrix: yeast
Notes: methotrexate growth selection, single substitutions
With: (+)-ABA 0.0091 µM
Reference: wild-type fitted maximum
Reading: higher = stronger binding
Starting sequence: PYL1, truncated, DHFR fusion (Arabidopsis thaliana); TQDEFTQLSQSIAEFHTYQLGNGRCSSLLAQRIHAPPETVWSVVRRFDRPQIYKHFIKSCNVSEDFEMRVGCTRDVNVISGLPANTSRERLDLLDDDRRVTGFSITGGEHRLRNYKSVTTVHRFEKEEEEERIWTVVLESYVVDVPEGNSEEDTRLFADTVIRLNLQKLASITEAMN
Change | relative binding score [%]
D144L | -3.36
G23P | 1.24
F157D | -0.567
N22Y | 16
V44P | -4.32
R155M | 6.4
L169G | -1.88
S27V | 1.26
T6D | 33.7
Q19A | 30.9
N22L | 18.4
S11V | 34.4
E125T | 31.5
H110G | 33

Series 3
Target: Myc proto-oncogene protein, bHLH-zipper, MAX partner unstated (MYC, Homo sapiens, UniProt P01106, residues 368-449)
Chain of UniProt P01106 (368-449, looked up): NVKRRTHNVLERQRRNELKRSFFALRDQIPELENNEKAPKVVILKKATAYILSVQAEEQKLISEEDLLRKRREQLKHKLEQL
Technique: protein-binding microarray
Form: double-stranded DNA, one strand shown
Matrix: in vitro
Tested at: not given
Notes: k-mer, scored over probes, only values ≥0.25
Reading: higher = stronger binding
Sequence | E-score
AATATGGC | 0.271
ACGTGATG | 0.4
CCGAGGAA | 0.251
CACTCCAC | 0.287
GATCATGC | 0.292
ACGTGCCA | 0.431
AGACCACG | 0.421
AACGTGGT | 0.439
CGTGTGGA | 0.296
ATGTGGAC | 0.303
AGAGCGTG | 0.367
CGCATTGC | 0.326
GCATGGGA | 0.403
CACCGTGC | 0.282
GCCACCCC | 0.343
CGATCACG | 0.283
CACTCACG | 0.251
CCTTGTGC | 0.282

Series 4
Target: CEBPA, bZIP domain (human)
Technique: DHFR protein complementation
Matrix: yeast
Notes: single substitutions, most at no-binding floor
Reference: wild-type JUN-FOS pair
Reading: higher = stronger binding
Starting sequence: JUN, bZIP domain (human); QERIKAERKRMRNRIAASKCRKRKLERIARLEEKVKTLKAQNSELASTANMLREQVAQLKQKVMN; partner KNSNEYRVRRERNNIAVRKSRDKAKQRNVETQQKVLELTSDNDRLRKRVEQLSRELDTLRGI
Change | binding fitness
L31V | -1.44 natural log
I28W | -1.42 natural log
R53T | -1.33 natural log
K36E | -1.42 natural log
L45G | -1.52 natural log
E33H | -1.36 natural log
I28A | -1.42 natural log
L38S | -1.47 natural log
K36R | -1.38 natural log
L31G | -1.4 natural log
I28V | -1.45 natural log
E54K | -1.61 natural log
V35H | -1.48 natural log
A49K | -1.4 natural log
A40F | -1.42 natural log
R30Y | -1.58 natural log
M51Q | -1.52 natural log
N42R | -1.43 natural log
K39T | -1.48 natural log
Q41A | -1.53 natural log
K36T | -1.47 natural log

Series 5
Target: CCNA1, cyclin fold, Cln2 fusion (human)
Technique: yeast growth competition, sequencing
Matrix: yeast
Notes: weak parent motif
Reference: not given
Reading: higher = stronger binding
Starting sequence: CDKN1C docking peptide (human); TSACRSLFGPVDH
Change | normalised enrichment score
TSAARSLFGPVDH [C4A] | 0.262
TSACKSLLGPVDH [R5K F8L] | -0.0261
TSACASLFGPVDH [R5A] | 0.102
TSACRSLFAPVDH [G9A] | 0.5
TSACASAFGPVDH [R5A L7A] | -0.024
TSACRSLAGPVDH [F8A] | 0.148
ASACRSLFGPVDH [T1A] | 0.572
TSACKSLFGPVDH [R5K] | 0.364
TSACRSAFGPVDH [L7A] | 0.131

Series 6
Target: Centromere-binding protein 1, full length, His-tagged (CBF1, Saccharomyces cerevisiae, UniProt P17106, residues 1-351)
Chain of UniProt P17106 (whole entry, looked up): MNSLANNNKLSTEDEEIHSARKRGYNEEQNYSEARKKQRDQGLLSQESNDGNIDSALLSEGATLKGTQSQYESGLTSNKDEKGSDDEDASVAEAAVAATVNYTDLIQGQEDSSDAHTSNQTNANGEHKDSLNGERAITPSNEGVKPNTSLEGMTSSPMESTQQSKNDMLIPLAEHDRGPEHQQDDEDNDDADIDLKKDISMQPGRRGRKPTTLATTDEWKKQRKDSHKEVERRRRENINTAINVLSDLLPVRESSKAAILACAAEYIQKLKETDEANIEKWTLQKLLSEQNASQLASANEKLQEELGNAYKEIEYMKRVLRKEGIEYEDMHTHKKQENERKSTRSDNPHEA
Technique: competition protein-binding microarray
Form: double-stranded DNA, one strand shown
Matrix: in vitro
Tested at: 2 µM
Notes: whole 60-bp probe, lowest competitor level
With: Pho4 competitor, 0.05 µM
Reading: higher = stronger binding
Sequence | fluorescence intensity [a.u.]
TGCTTTTCCATTGGTTACGTGCTAAGTTGTTAGATAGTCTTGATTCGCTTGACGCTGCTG | 78.9
CGTCCTAGCGATTGACAGGTGGGTGCCATGAGGAAGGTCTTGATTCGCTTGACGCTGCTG | 58.2
TGCGCAACAACTTGAATAGTGGGTGTATGTCTAGAAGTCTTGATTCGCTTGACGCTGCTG | 59.6
CGTCCTAGTGATTTTCACGTGTAGTCCATGAGGAAGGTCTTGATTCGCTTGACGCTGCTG | 747
CTTCTGTAAATTTGTCACATCACTTGACGCGCCCCGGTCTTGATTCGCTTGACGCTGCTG | 111
TTGGCGCACTTACAGGACCTGACGACTTTGCCCCCGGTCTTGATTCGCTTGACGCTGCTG | 60.3
CAAAAGGCATGGCCTGGCGTGCAAAATCCGTTGTTTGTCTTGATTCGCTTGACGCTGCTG | 59.8
CATACCCAACCTTTTCACGTGCGGTAAGATATTTGTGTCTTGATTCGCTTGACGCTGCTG | 786
AAATTACTAAGTTGGTCGGTGGGTGACGCCGTATGAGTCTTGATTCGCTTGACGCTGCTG | 69.1
TGACGGCGAAGCTCGCACGTGCGCAGCCCGGGGGCGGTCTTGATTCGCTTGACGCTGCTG | 997
CTTCTGTAAATTTGCCCTGTGGGTGGACGCGCCCCGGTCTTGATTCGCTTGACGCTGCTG | 82
CGGGGTTAAGTTTGTCACACCACTTGCTTGCAGCAGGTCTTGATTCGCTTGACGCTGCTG | 105
AGACGGGGATCATCTTGCATGACAGTGCTAACATTTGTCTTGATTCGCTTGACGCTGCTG | 83.5
GAACCTCACTGAAGCACCGTGAATAACCCCATAAATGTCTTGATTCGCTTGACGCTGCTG | 77.1
CGGGGTTAAGTTTGTCACCTCACTTGCTTGCAGCAGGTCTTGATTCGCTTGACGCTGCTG | 68.3
TTGTCTGTGCATTGGCATGTGCAAGCATTCGATGAAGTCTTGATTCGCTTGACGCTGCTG | 101
GTCCCACACTACTGGCACGTTTTCTTGATTTTTGTCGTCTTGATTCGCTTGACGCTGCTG | 194

Series 7
Target: Sal-like protein 4, full length isoform A (SALL4, Homo sapiens, UniProt Q9UJQ4, residues 1-1053)
Chain of UniProt Q9UJQ4 (whole entry, looked up): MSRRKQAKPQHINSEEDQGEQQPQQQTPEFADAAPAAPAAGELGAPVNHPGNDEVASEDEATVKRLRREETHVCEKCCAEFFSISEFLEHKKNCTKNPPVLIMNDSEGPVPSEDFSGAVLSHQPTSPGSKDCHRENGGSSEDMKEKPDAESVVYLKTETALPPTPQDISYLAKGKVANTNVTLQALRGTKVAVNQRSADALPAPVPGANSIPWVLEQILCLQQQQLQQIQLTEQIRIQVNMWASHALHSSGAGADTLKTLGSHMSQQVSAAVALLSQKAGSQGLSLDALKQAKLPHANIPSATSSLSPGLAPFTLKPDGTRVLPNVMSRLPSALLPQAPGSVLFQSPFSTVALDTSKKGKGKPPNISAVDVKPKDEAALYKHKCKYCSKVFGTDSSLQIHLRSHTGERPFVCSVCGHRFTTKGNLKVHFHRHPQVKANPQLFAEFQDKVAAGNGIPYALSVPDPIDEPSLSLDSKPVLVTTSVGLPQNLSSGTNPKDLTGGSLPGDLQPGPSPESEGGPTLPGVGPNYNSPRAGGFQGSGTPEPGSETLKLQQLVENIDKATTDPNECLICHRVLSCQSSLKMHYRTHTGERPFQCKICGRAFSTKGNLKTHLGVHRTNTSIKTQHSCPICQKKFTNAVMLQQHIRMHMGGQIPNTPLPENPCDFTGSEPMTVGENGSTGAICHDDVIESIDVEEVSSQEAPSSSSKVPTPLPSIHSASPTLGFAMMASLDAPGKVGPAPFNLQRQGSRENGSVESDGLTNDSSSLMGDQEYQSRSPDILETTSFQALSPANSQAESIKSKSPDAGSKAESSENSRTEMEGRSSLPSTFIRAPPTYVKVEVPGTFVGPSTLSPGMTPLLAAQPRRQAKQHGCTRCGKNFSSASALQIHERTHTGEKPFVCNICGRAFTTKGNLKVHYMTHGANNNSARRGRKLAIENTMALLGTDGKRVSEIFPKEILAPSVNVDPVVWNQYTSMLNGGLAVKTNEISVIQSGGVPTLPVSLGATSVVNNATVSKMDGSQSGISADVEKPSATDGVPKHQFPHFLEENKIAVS
Technique: universal PBM
Form: double-stranded DNA, one strand shown
Matrix: in vitro
Tested at: 600 nM
Notes: 8-mer, flanks averaged, mean of replicates
Reading: higher = stronger binding
Sequence | E-score
CATTAGCC | -0.0393
CCACTATA | 0.207
CCATGTTA | 0.155
AAAGCCAG | -0.155
GTATTAAA | 0.316
AAATTGGC | 0.014
AATATCCA | 0.301
CTTCAATA | 0.357
CGCGCTCA | -0.177
AAGGCAGG | 0.0337
AACAAACC | 0.0317
AGAAACTA | -0.0273
CACAATCG | 0.0506
AAATTAGC | 0.0825
AACAATCG | 0.0529
TCGAGGAA | 0.0233
CATGGGAA | -0.0177
ACATCGGT | -0.0835
CCACAGCA | -0.0778
CGGGGCGC | -0.433
CGAGAGTC | -0.204
ACTGCATC | 0.032
CCGAATAA | 0.226
TAAACGTA | 0.273
AAGATTAA | 0.319

Some of these lines once more (series 4):
Change | binding fitness
L31V | -1.44 natural log
I28W | -1.42 natural log
R53T | -1.33 natural log
K36E | -1.42 natural log
L45G | -1.52 natural log
E33H | -1.36 natural log
I28A | -1.42 natural log
L38S | -1.47 natural log
K36R | -1.38 natural log
L31G | -1.4 natural log
I28V | -1.45 natural log
E54K | -1.61 natural log
V35H | -1.48 natural log
